Measurements pooled from the literature.
Lines come from different studies, so protocols differ. Numbers after ± are the reported error.

Under “grade 3 Rash”, `COc1cc2c(Oc3ccc4[nH]c(C)cc4c3F)ccnc2cc1OCC1(N)CC1` is recorded as 0% (paediatric recurrent refractory sarcoma; 8 mg).
`Cc1cc(C)c(CNC(=O)c2cc(Cl)c3c(c2C)O[C@@](C)([C@H]2CC[C@H](N(C)C)CC2)O3)c(=O)[nH]1` — result for “incidence of lactic acidosis”: 0% (relapsed/refractory NHL patients; dose not given, trial, safety set, all TEAEs grade 5).
Under “dose-normalised free AUC(0-24)”, `CC(C)(C(=O)NC1C2CC3CC1CC(C(N)=O)(C3)C2)N1CCN(c2ccc(C(F)(F)F)cn2)CC1` (stereo not shown) is recorded as 1.4 (ng·h/mL)/mg (human, plasma; 10 mg once daily, 5 days, median).
For `N.N.O=C([O-])C1(C(=O)[O-])CCC1.[Pt+2]`, “AUC to infinity” read 28300 ng·h/mL (item: non-protein-bound platinum; human, plasma ultrafiltrate; dose not given, from 0, median, Bayesian estimate).
`C=CC(=O)Nc1cc(Nc2nccc(Nc3cc(Cl)c(F)cc3C(C)(C)O)n2)c(OC)cc1N1CC[C@@H](N(C)C)C1` — result for “patients with paronychia”: 25% (human patients; oral, 200 mg, treatment-emergent adverse events).
Under “AEs leading to discontinuation”, `CO[C@H]1C[C@@H]2CC[C@@H](C)[C@@](O)(O2)C(=O)C(=O)N2CCCC[C@H]2C(=O)O[C@H]([C@H](C)C[C@@H]2CC[C@@H](OC(=O)NCCOCCOCCOCCOCCOCCOCCOCCOCCC(=O)N3CCc4cc(Cn5nc(-c6ccc7oc(N)nc7c6)c6c(N)ncnc65)ccc4C3)[C@H](OC)C2)C[C@@H](O)[C@H](C)/C=C(\C)[C@@H](O)[C@@H](OC)C(=O)[C@H](C)C[C@H](C)/C=C/C=C/C=C/1C` is recorded as 12.3% (dose-escalation trial; patients with advanced solid tumours; intravenous, all doses weekly, any grade).
For `CCCCCCCCCCC[C@H](OC1OC[C@H](O)[C@@H](O)[C@@H]1O)[C@H](O)[C@H](O)C[C@@H]1CC(=O)N[C@H](CO)C(=O)N[C@H]([C@H](O)c2ccc(O)cc2)C(=O)N[C@H](CCN)C(=O)NCC(=O)N[C@@H](CC(N)=O)C(=O)N[C@@H](CO)C(=O)N[C@@H]([C@H](O)C(N)=O)C(=O)N1` (stereo partly shown), “measured concentration, benchtop” read 780 ng/mL (LC-MS/MS; rabbit plasma, sodium citrate; 800 ng/mL, room temperature).
`C[C@]1(CO)Cc2ncn(-c3ccc(C#N)c(Cl)c3)c2C(=O)O1` — result for “subjects with drug-related orthostatic hypotension”: 0% (human; 0.7 mg single dose).
`O=C(Nc1ccccc1)C1CCN(C(=O)Oc2cccnc2)CC1`: “subjects with chest discomfort” 0% (adverse event reporting; healthy women; oral, 20 mg, 7 days).
For `CCCc1cc(O)c(C/C=C(\C)CCC=C(C)C)c(O)c1C(=O)O`, the plasma concentration was 400 ± 23 µg/mL (LC-MS/MS; Scn1a+/− mice, plasma; intraperitoneal, 100 mg/kg, after hyperthermia protocol).
`CCc1ccc(CC/C=C/c2ccc3c(c2)C(=O)CC3)cc1` gave an MCHC of 314 g/L (Sprague-Dawley rat, male; oral, 450 mg/kg/day, 14 days).
Under “patients with adverse event”, `CN1CC[C@@H](c2c(O)cc(O)c3c(=O)cc(-c4ccc(C(F)(F)F)cc4Cl)oc23)[C@@H]1CO` is recorded as 0% (item: Vomiting; B-cell malignancies; oral, 100 mg, intermittent dosing).
`Cn1cncc1-c1c(F)cncc1NC(=O)c1c(N)nn2cc(F)cnc12`: “grade ≥3 platelet decrease incidence” 0% (human patients; oral, 180 mg once daily).

Repeated from above:
For `N.N.O=C([O-])C1(C(=O)[O-])CCC1.[Pt+2]`, “AUC to infinity” read 28300 ng·h/mL (item: non-protein-bound platinum; human, plasma ultrafiltrate; dose not given, from 0, median, Bayesian estimate).
